Published values from different studies.
Protocols differ between the studies behind these lines. ± gives the spread as reported.
Organism: Staphylococcus epidermidis

`CC[C@H](C)[C@H](NC(=O)[C@H](CCCCN)NC(=O)[C@H](CCCCN)NC(=O)[C@H](CC(C)C)NC(=O)[C@H](CCCCN)NC(=O)[C@H](CCC(=O)O)NC(=O)[C@H](CCCCN)NC(=O)[C@@H](NC(=O)[C@H](CCCCN)NC(=O)[C@H](CC(N)=O)NC(=O)[C@H](CCCNC(=N)N)NC(=O)[C@H](Cc1ccccc1)NC(=O)[C@H](CCCCN)NC(=O)[C@H](CCCNC(=N)N)NC(=O)[C@H](CC(C)C)NC(=O)[C@H](CCCNC(=N)N)NC(=O)[C@H](CCCCN)NC(=O)[C@H](CCCNC(=N)N)NC(=O)[C@H](CC(C)C)NC(=O)[C@@H](N)CCCNC(=N)N)[C@@H](C)CC)C(=O)NCC(=O)N[C@@H](CCC(N)=O)C(=O)N[C@@H](CCCCN)C(=O)N[C@H](C(=O)N[C@@H](CCC(N)=O)C(=O)NCC(=O)N[C@@H](Cc1ccccc1)C(=O)N[C@H](C(=O)N1CCC[C@H]1C(=O)N[C@@H](CCCCN)C(=O)N[C@@H](CC(C)C)C(=O)N[C@@H](CCC(N)=O)C(=O)N1CCC[C@H]1C(=O)N[C@@H](CO)C(=O)N[C@@H](CCCCN)C(=O)N[C@@H](CCC(N)=O)C(=O)N[C@@H](CO)C(=O)O)C(C)C)[C@@H](C)CC` has a lethal concentration of 1.87 µM (inhibition zone; penicillin-resistant P1389).
`CC(C)[C@H](NC(=O)[C@H](CO)NC(=O)[C@@H](N)CC(=O)O)C(=O)N[C@H]1CSC(=O)[C@H](Cc2ccccc2)NC(=O)[C@H](Cc2ccc(O)cc2)NC(=O)[C@H](CO)NC(=O)[C@H](C)NC1=O` gave an IC50 of 99 nM (biofilm formation; RP62A; 24 h).
With `ONCc1ccc(F)cc1` the MIC50 was less than 60 µg/mL (ATCC 1798; 8 h).
Under “inhibition zone diameter”, `CN1CC(=O)N=C1N.C[C@H](CCC(=O)O)[C@H]1CC[C@H]2[C@@H]3CC[C@@H]4C[C@H](O)CC[C@]4(C)[C@H]3C[C@H](O)[C@]12C` is recorded as 13.3 ± 0.2 mm (TISTR 2172; 1 mg per disc, 18 to 24 h, 37 °C, 6 mm disc).
For `[Ag+].[S-]c1ccccn1.c1ccc(P(c2ccccc2)c2ccccc2)cc1.c1ccc(P(c2ccccc2)c2ccccc2)cc1`, “inhibition zone diameter” read 14 mm (MTCC 435, DMSO; 0.1 mL of 50 mg/mL in 8 mm well, 18 to 24 h).
For `ONCc1cc(C(F)(F)F)cc(C(F)(F)F)c1`, the MIC50 was less than 60 µg/mL (ATCC 1798; 8 h).
For `CC[C@H](C)[C@H](NC(=O)[C@H](CCCCN)NC(=O)[C@H](CCCCN)NC(=O)[C@H](CC(C)C)NC(=O)[C@H](CCCCN)NC(=O)[C@H](CCC(=O)O)NC(=O)[C@H](CCCCN)NC(=O)[C@@H](NC(=O)[C@H](CCCCN)NC(=O)[C@H](CC(N)=O)NC(=O)[C@H](CCCNC(=N)N)NC(=O)[C@H](Cc1ccccc1)NC(=O)[C@H](CCCCN)NC(=O)[C@H](CCCNC(=N)N)NC(=O)[C@H](CC(C)C)NC(=O)[C@H](CCCNC(=N)N)NC(=O)[C@H](CCCCN)NC(=O)[C@H](CCCNC(=N)N)NC(=O)[C@H](CC(C)C)NC(=O)[C@@H](N)CC(C)C)[C@@H](C)CC)C(=O)NCC(=O)N[C@@H](CCC(N)=O)C(=O)N[C@@H](CCCCN)C(=O)N[C@H](C(=O)N[C@@H](CCC(N)=O)C(=O)NCC(=O)N[C@@H](Cc1ccccc1)C(=O)N[C@H](C(=O)N1CCC[C@H]1C(=O)N[C@@H](CCCCN)C(=O)N[C@@H](CC(C)C)C(=O)N[C@H](C(=O)N1CCC[C@H]1C(=O)N[C@@H](CCCNC(=N)N)C(=O)N[C@H](C(=O)N[C@@H](CCC(=O)O)C(=O)N[C@@H](CO)C(=O)O)[C@@H](C)O)C(C)C)C(C)C)[C@@H](C)CC`, the lethal concentration was 1.3 µM (inhibition zone; penicillin-resistant P1389).
`CN1CC(=O)N=C1N.C[C@H](CCC(=O)O)[C@H]1CC[C@H]2[C@@H]3[C@H](O)C[C@@H]4C[C@H](O)CC[C@]4(C)[C@H]3CC[C@]12C` — result for “inhibition zone diameter”: 12 ± 0.6 mm (TISTR 2172; 1 mg per disc, 18 to 24 h, 37 °C, 6 mm disc).
